{"data": "Results pooled from the literature", "note": "Every numbered part comes from another study and shows a few of its results, in no order."}
{"data": "Set 1", "target": "Ras GTPase-activating protein-binding protein 1, full length (G3BP1, Homo sapiens, UniProt Q13283)", "technique": "RNA Bind-n-Seq", "form": "RNA", "sample": "in vitro", "tested at": "200 nM", "setting": "whole 134-nt RNA, ends assumed", "with": "150 mM LiCl", "baseline": "input library", "reading": "higher = stronger binding", "library": "7-deaza-guanosine replaces G", "all sequences stand within": "GGGAGUUCUACAGUCCGACGAUC … UGGAAUUCUCGGGUGUCAAGG", "UniProt Q13283, sequence (whole entry, looked up)": "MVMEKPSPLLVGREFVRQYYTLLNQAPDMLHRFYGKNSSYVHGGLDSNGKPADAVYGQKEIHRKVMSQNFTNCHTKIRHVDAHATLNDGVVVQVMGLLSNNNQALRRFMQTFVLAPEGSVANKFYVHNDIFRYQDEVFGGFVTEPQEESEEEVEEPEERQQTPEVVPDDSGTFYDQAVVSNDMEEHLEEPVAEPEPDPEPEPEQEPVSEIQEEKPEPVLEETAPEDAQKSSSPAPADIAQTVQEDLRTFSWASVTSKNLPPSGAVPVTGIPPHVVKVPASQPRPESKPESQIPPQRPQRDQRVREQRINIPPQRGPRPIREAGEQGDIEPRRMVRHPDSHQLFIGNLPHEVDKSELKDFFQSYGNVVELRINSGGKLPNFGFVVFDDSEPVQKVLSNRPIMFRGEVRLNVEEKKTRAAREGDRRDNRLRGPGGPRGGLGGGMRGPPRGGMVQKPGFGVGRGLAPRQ"}
{"Oligonucleotide": "UCCUGUGCUACACAUCGUAUGUACCGAAUCAAAUUUUUUUAAAUUUUUUUAAAUUUAAAAAAGUAUUAUGUUACGCCGUUCGGAUCUGCA", "log2 enrichment": -2.25}
{"Oligonucleotide": "GUCCUGUGCUACACAUCGUAUGUACCGAAUCGGAAAAAGGGAAAAAGGGAAAAAGGGGAAAGUAUUAUGUUACGCCGUUCGGAUCUGCAC", "log2 enrichment": -0.0863}
{"Oligonucleotide": "UCCUCAAGUCCUGUGCUACACAUCGUAUGUACCGAAUCGGUGGUGGGUGGGGAAAGUAUUAUGUUACGCCGUUCGGAUCUGCACUUCCAG", "log2 enrichment": 0.851}
{"Oligonucleotide": "CCUGUGCUACACAUCGUAUGUACCGAAUCGGGUUUUUUUGGUUUUUUUGGGGUUUUUUUGGAAAGUAUUAUGUUACGCCGUUCGGAUCUG", "log2 enrichment": 1.03}
{"Oligonucleotide": "UCCUGUGCUACACAUCGUAUGUACCGAAUCAAACCCCCCCAAAUUUAAACCCCCCCAAAAAAGUAUUAUGUUACGCCGUUCGGAUCUGCA", "log2 enrichment": 1.23}
{"Oligonucleotide": "CACAGACAACACGCACCCACACAGACACAGAGGGAAGGGGUUGGGAUGGGGACAGGGUGCACAGCAGGGCGGGGUAGGACAAAAGCCCCU", "log2 enrichment": -0.787}
{"Oligonucleotide": "UAACUUUAGAGGAGGAUCUGAUGGAUAUGGCAGUGGACGUGGAUUUGGGGAUGGCUAUAAUGGGUAUGGAGGAGGACCUGGAGGGGGCAA", "log2 enrichment": 0.0999}
{"Oligonucleotide": "ACCAUGCAGGUGGGCAUCUUUGGGAAGUGGGGCAGGGGGGGGAUAGGGAGGGGGGUAACACUUUGGGAACAGGUGGUCCCAGGUCGUUUC", "log2 enrichment": 0.013}
{"data": "Set 2", "target": "Histone acetyltransferase KAT6A, winged helix 2, GST fusion (KAT6A, Homo sapiens, UniProt Q92794, residues 85-181)", "technique": "protein binding microarray", "form": "double-stranded DNA, one strand shown", "sample": "in vitro", "tested at": "not given", "setting": "8-mer, flanks averaged, mean of 2 arrays, mostly near background", "baseline": "not given", "reading": "higher = stronger binding", "Construct (chain)": "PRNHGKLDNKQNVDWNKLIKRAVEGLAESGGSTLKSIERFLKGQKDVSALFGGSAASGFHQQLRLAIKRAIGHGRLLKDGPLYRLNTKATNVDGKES"}
{"Oligonucleotide": "CTTCCAAC", "E-score": -0.0732}
{"Oligonucleotide": "ACAAGGAA", "E-score": 0.181}
{"Oligonucleotide": "GGTCCCGA", "E-score": 0.109}
{"Oligonucleotide": "AAGTCCAC", "E-score": -0.131}
{"Oligonucleotide": "GGGGCGTA", "E-score": -0.0156}
{"Oligonucleotide": "CAAAGGCG", "E-score": -0.0776}
{"Oligonucleotide": "GAGCCGTA", "E-score": 0.205}
{"Oligonucleotide": "CCGTCTAC", "E-score": 0.00786}
{"Oligonucleotide": "ATTATATA", "E-score": 0.0237}
{"Oligonucleotide": "GATAACCA", "E-score": -0.0998}
{"Oligonucleotide": "CAAATTTG", "E-score": 0.0297}
{"Oligonucleotide": "CTAGATAA", "E-score": 0.026}
{"Oligonucleotide": "CTACTCCC", "E-score": 0.0947}
{"Oligonucleotide": "ATGCTAAC", "E-score": 0.176}
{"Oligonucleotide": "CGTTAGGC", "E-score": -0.184}
{"Oligonucleotide": "ATTTGCGG", "E-score": 0.0912}
{"Oligonucleotide": "AACCGCTC", "E-score": 0.0179}
{"Oligonucleotide": "ACTTGGAA", "E-score": 0.00519}
{"Oligonucleotide": "ACGGCCTA", "E-score": 0.0404}
{"Oligonucleotide": "ACCATATG", "E-score": -0.316}
{"Oligonucleotide": "ACACTCGT", "E-score": -0.0505}
{"Oligonucleotide": "CCGCGCGA", "E-score": 0.219}
{"Oligonucleotide": "AGGGGATC", "E-score": -0.141}
{"Oligonucleotide": "ACTCACAT", "E-score": -0.0901}
{"Oligonucleotide": "GATCATAA", "E-score": 0.144}
{"data": "Set 3", "target": "Sal-like protein 4, full length isoform A (SALL4, Homo sapiens, UniProt Q9UJQ4, residues 1-1053)", "technique": "universal PBM", "form": "double-stranded DNA, one strand shown", "sample": "in vitro", "tested at": "600 nM", "setting": "8-mer, flanks averaged, mean of replicates", "reading": "higher = stronger binding", "UniProt Q9UJQ4, sequence (whole entry, looked up)": "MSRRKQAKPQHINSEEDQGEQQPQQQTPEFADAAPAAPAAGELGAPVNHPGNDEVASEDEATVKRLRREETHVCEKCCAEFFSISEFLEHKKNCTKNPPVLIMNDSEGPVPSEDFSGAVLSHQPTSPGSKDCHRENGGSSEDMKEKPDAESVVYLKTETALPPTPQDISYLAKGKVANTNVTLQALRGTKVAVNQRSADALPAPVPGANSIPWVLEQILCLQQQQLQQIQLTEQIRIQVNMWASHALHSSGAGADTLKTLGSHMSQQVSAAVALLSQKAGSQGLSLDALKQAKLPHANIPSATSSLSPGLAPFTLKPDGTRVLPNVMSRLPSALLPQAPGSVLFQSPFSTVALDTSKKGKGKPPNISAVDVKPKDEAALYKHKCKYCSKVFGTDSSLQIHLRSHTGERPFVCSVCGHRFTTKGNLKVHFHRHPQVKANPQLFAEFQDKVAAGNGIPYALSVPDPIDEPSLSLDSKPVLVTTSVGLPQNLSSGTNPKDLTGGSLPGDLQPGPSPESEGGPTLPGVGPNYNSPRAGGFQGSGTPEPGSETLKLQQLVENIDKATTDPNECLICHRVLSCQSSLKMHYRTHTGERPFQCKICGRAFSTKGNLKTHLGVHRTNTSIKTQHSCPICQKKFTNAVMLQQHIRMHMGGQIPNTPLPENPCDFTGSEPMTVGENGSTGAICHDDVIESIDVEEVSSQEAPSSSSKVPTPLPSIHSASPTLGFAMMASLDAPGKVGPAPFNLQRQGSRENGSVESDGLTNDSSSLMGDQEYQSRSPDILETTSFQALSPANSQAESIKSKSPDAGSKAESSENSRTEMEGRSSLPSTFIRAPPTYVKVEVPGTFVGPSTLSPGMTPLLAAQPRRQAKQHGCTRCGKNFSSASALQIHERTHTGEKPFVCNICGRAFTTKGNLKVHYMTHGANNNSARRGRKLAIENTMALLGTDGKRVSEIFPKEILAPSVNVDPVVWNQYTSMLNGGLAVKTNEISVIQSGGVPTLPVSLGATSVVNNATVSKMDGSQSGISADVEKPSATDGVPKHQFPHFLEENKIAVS"}
{"Oligonucleotide": "ACATGGCT", "E-score": -0.0136}
{"Oligonucleotide": "GGTCAAAC", "E-score": -0.0298}
{"Oligonucleotide": "ACCGATTG", "E-score": 0.0749}
{"Oligonucleotide": "ATATCCAA", "E-score": 0.226}
{"Oligonucleotide": "GGTGAACA", "E-score": 0.00238}
{"Oligonucleotide": "AGGCGTTG", "E-score": -0.155}
{"Oligonucleotide": "AACCGCTA", "E-score": -0.101}
{"Oligonucleotide": "GGTAACCA", "E-score": -0.0937}
{"Oligonucleotide": "GGACGGGA", "E-score": -0.229}
{"Oligonucleotide": "AGCTGGAC", "E-score": -0.113}
{"Oligonucleotide": "TCAACCCA", "E-score": -0.117}
{"Oligonucleotide": "AGCCGAAG", "E-score": -0.168}
{"Oligonucleotide": "TCGGGCAA", "E-score": -0.102}
{"Oligonucleotide": "ACTAGCTA", "E-score": -0.073}
{"Oligonucleotide": "CGATACAC", "E-score": 0.079}
{"Oligonucleotide": "TATAGGCA", "E-score": 0.198}
{"Oligonucleotide": "GCAATACA", "E-score": 0.159}
{"Oligonucleotide": "GCATATAA", "E-score": 0.351}
{"Oligonucleotide": "GTAATTTA", "E-score": 0.333}
{"Oligonucleotide": "TCATCTAA", "E-score": 0.152}
{"Oligonucleotide": "AGCCCACA", "E-score": -0.0892}
{"data": "Set 4", "target": "RNA binding protein fox-1 homolog 2, RRM domain, GST-SBP tag (RBFOX2, Homo sapiens, UniProt O43251-10, residues 100-194)", "technique": "RNA Bind-n-Seq", "form": "RNA", "sample": "in vitro", "tested at": "365 nM", "setting": "natural RNA segment, single round, ends assumed", "baseline": "no-protein control", "reading": "higher = stronger binding", "all sequences stand within": "GGGAGUUCUACAGUCCGACGAUC … UGGAAUUCUCGGGUGCCAA", "Construct (chain)": "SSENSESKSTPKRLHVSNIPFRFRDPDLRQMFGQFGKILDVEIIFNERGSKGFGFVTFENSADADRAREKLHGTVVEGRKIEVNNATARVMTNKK"}
{"Oligonucleotide": "UCAGCUAUGGCUUGACGUAAUCGCUUUUAGACCCAGGUUGGCUUCCCUUCAUUAAGCUAUGAUCCUCCACCCCAUUUUUUUUUUUUUUAAUUUGGAGUGGGAGGGAGGGG", "RBNS enrichment (R)": 0.239}
{"Oligonucleotide": "GGGGGAGGGGGUAUUUGCAAAACCUUAAUUUUGUUAAAAUGGGGGACUCUGUCAGGGGACUCUGUCAUCGCUUCCCUUCCUCAGAGGACAGCACAGAGCCGCGGCGUACA", "RBNS enrichment (R)": 0.601}
{"Oligonucleotide": "UUUCCAGGCUGCAGCCGUAACGCACUUUCUCCCAGGCUGAGGGCGGGUGUUCUGGGGUGUCUGCCCUCUGUCGGCCCUGCUUCCUGCCAGGACGUGGCCUCUUCCGAUCC", "RBNS enrichment (R)": 0.413}
{"Oligonucleotide": "GAAUCAGGUGCCCGGAGUCUUUGGAGCUCUGAAACUCUCGGCUAUGCAAGACCCCGGGUCCUUGCAGCAGAGCUUCUCAUGGGUGGCUUGCUGGGGCCGGGCCGAGGACU", "RBNS enrichment (R)": 0.353}
{"Oligonucleotide": "CUCAUUAACUUAACCAACAAUGUGUAUUGAGUCUCUGCUGUAUAUCUGUGAUGCUCUGUCCCAAGCCAUGGGGAUCUAGAGGUGAAUCAGAAAUAGCCUCAGAAACUGAG", "RBNS enrichment (R)": 0.31}
{"Oligonucleotide": "CCUCCCUUUUCAAUAAGAUUAUUAGUCGUGCAUGUCUGUGAGCUGCCUUUCAUCACCAUUUUUCCUGAGUAGGGCUUAGUUUUAUUCUGGAAAGACAUCUCCAAGGUGAG", "RBNS enrichment (R)": 3.14}
{"Oligonucleotide": "CUUGCUGUUAAGUGGUCUUCCCCCAUUGGGAUCCUACAGUCCCACAGAUGAAAGCACAGUAGUAGCUGACAGCUGGCUUAUUUGGUCCCUCGGCAUCUCUCGUAUGUGGC", "RBNS enrichment (R)": 0.352}
{"Oligonucleotide": "GCUGCAGCCGGCUCACCUCUCUCCGCUUCUUGCACAUCACUGGCCUGUGUGUGCUGCUUGCUCCUGUUCUGUUCGCUUGCUCCCGUUCCGUUCGGCUUUUGCUUUGCGUU", "RBNS enrichment (R)": 7.4}
{"note": "Excerpt of the above (set 3):"}
{"Oligonucleotide": "ACATGGCT", "E-score": -0.0136}
{"Oligonucleotide": "TATAGGCA", "E-score": 0.198}
{"Oligonucleotide": "GGACGGGA", "E-score": -0.229}
{"Oligonucleotide": "AGCTGGAC", "E-score": -0.113}
{"Oligonucleotide": "GCATATAA", "E-score": 0.351}
{"Oligonucleotide": "AACCGCTA", "E-score": -0.101}
{"Oligonucleotide": "TCATCTAA", "E-score": 0.152}
{"Oligonucleotide": "GTAATTTA", "E-score": 0.333}
{"Oligonucleotide": "GCAATACA", "E-score": 0.159}
